Measurements of several laboratories.
Protocols differ between the studies behind these lines. Numbers after ± are the reported error.
TDP1: Tyrosyl-DNA phosphodiesterase 1 (TDP1, Homo sapiens, UniProt Q9NUW8)
Sequence of UniProt Q9NUW8 (whole entry, looked up): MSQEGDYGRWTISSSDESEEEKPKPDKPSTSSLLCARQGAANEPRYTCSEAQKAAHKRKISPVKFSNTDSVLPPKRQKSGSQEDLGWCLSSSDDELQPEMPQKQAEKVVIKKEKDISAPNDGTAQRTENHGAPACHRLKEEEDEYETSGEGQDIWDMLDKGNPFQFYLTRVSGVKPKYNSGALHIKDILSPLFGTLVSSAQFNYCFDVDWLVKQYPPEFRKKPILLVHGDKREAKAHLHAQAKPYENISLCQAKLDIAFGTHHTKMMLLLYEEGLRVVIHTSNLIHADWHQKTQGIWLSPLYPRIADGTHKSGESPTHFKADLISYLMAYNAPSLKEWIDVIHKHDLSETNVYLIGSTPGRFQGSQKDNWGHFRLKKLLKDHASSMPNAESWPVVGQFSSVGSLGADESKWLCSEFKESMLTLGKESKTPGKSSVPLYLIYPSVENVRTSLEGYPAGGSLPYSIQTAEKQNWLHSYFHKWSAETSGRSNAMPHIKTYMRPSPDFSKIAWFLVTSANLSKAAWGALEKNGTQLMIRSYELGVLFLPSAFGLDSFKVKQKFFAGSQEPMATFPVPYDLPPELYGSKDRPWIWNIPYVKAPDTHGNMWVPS

| SMILES | target or system | assay | setting | endpoint | value |
| --- | --- | --- | --- | --- | --- |
| COc1ccc(OC(C)=O)cc1-c1c[nH]c2ncc(-c3cncc(C(=O)N(C)C)c3)cc12 | Ba/F3 BCR-ABL wild type | cell proliferation | 72 h | GI50 | 17.9 ± 2.1 nM |
| O=C(C[Se]C(=O)c1cc2ccccc2[nH]1)Nc1cccc(C(F)(F)F)c1 | NCI60 melanoma subpanel | cell growth, inhibitor | five-dose | GI50 | 1380 nM |
| N#C[Se]CCCCCCOc1ccc2c(-c3ccccc3)cc(=O)oc2c1 | WiDr, multidrug-resistant | sulforhodamine B |  | GI50 | 8900 ± 3300 nM |
| COc1cccc(F)c1C=NOCc1ccc2nc(-c3ccccc3)c(Nc3ccc(C(=O)O)cc3)n2c1 (mixture of isomers) | TDP1 | enzyme activity, inhibitor | 100 µM, unpurified compound | inhibition | 13% |
| O=C(C[Se]C(=O)c1ccc2ccccc2n1)Nc1cccc(C(F)(F)F)c1 | NCI60 leukaemia subpanel | NCI60 five-dose screen |  | GI50 | 2000 nM |
| C=CC(=O)Nc1ccc(OC)c(-c2c[nH]c3ncc(-c4cncc(C(=O)N(C)C)c4)cc23)c1 | Ba/F3 BCR-ABL wild type | cell proliferation | 72 h | GI50 | > 1000 nM |
| Cc1c(Cl)c(=O)oc2cc(OCCCCCCSC#N)ccc12 | WiDr, multidrug-resistant | sulforhodamine B |  | GI50 | 9700 ± 2900 nM |
| COc1ccc(O)cc1-c1c[nH]c2ncc(-c3cncc(C(=O)N(C)C)c3)cc12 | Ba/F3 BCR-ABL wild type | cell proliferation | 72 h | GI50 | 29.9 ± 11.1 nM |
| O=C(O)c1ccc(Nc2c(-c3ccccc3)nc3ccc(CON=Cc4ccc(-c5cccs5)s4)cn23)cc1 (mixture of isomers) | TDP1 | enzyme activity, inhibitor | 100 µM, unpurified compound | inhibition | 24.4% |
| Cc1c(Cl)cccc1Nc1ccccc1C(=O)[Se]CC(=O)Nc1cccc(C(F)(F)F)c1 | NCI60 melanoma subpanel | cell growth, inhibitor | five-dose | GI50 | 1550 nM |
| CCN(C(=O)c1cc(F)ccc1Oc1nncnc1N1CCC2(C1)CN([C@H](CCCN(C)CCOC)C(C)C)C2)C(C)C | COLO-678 | cell growth or viability | 7 days | GI50 | > 10000 nM |

Some of these lines once more:
| SMILES | target or system | assay | setting | endpoint | value |
| --- | --- | --- | --- | --- | --- |
| CCN(C(=O)c1cc(F)ccc1Oc1nncnc1N1CCC2(C1)CN([C@H](CCCN(C)CCOC)C(C)C)C2)C(C)C | COLO-678 | cell growth or viability | 7 days | GI50 | > 10000 nM |
